Results pooled from the literature.
Each numbered part is a random draw from the data of one study; scales do not carry over between parts. Substitutions count along the parent as printed.

Set 1 — target: CCNA1, cyclin fold, Cln2 fusion (human); technique: yeast growth competition, sequencing; sample: yeast; notes: weak parent motif; reference: not given; reading: higher = stronger binding
Parent: BRCA2 docking peptide (human); PSIKRNLLNEFDR; partner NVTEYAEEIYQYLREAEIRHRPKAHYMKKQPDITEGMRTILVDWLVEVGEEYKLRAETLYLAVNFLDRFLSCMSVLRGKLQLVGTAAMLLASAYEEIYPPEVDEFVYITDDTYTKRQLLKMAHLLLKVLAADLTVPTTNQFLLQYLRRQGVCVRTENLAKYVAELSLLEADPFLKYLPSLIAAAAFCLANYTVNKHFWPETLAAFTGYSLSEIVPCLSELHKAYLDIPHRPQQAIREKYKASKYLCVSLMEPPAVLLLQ
`PSIKRWLLNEFDR [N6W]` — result for “normalised enrichment score”: 0.27.
`PSYKRNLLNEFDR [I3Y]`: “normalised enrichment score” 0.51.
For `PSIKVNLLNEFDR [R5V]`, “normalised enrichment score” read 0.459.
Under “normalised enrichment score”, `PSIKRNLLNEFDG [R13G]` is recorded as 0.532.
`PSIKRNLLCEFDR [N9C]`: “normalised enrichment score” 0.196.
`PSIKRNLLNEFDL [R13L]`: “normalised enrichment score” 0.0979.
For `PHIKRNLLNEFDR [S2H]`, “normalised enrichment score” read 0.269.
`PSIKRQLLNEFDR [N6Q]` — result for “normalised enrichment score”: 0.124.
Under “normalised enrichment score”, `PSIMRNLLNEFDR [K4M]` is recorded as 0.291.

Set 2 — technique: protein binding microarray; molecule type: double-stranded DNA, one strand shown; sample: in vitro; concentration: not given; reference: not given; reading: higher = stronger binding
Target: Histone acetyltransferase KAT6A, winged helix 2, GST fusion (KAT6A, Homo sapiens, UniProt Q92794, residues 85-181)
Notes: 8-mer, flanks averaged, mean of 2 arrays, mostly near background
Target sequence (chain): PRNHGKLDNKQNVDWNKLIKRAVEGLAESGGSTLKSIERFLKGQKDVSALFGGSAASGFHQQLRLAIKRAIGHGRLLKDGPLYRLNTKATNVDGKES
`CCCACCAC` has an E-score of 0.059.
`TAATTAAA` gave an E-score of 0.0674.
`CCGCAGGA` gave an E-score of 0.145.
The E-score of `AAACGATA` is reported as -0.0923.
`CTCATAAG` has an E-score of -0.0348.
The E-score of `CTAACGGA` is reported as 0.0829.
`AGCAGGAA` gave an E-score of 0.0574.
`ATTTTTTC` gave an E-score of 0.0869.
`CCTATCGC` has an E-score of -0.0888.

Set 3 — technique: RNA Bind-n-Seq; molecule type: RNA; sample: in vitro; concentration: not given; reference: input RNA pool; reading: higher = stronger binding
Target: RING finger protein unkempt homolog, zinc fingers 1-6, GST-SBP tag (UNK, Homo sapiens, UniProt Q9C0B0, residues 30-357)
Chain of UniProt Q9C0B0 (30-357, looked up): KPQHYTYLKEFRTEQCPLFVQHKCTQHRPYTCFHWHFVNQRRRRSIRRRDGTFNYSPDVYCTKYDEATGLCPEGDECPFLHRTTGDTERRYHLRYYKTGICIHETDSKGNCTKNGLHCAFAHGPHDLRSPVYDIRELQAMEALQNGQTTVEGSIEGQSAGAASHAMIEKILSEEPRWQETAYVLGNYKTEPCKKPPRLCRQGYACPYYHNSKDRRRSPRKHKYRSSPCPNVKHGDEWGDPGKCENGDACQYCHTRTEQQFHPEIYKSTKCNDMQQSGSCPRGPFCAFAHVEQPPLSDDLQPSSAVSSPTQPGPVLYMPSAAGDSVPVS
Notes: RNA with constant flanks, human-mouse chimeric sites, ends assumed
Shared flanks, not repeated: GGGAGUUCUACAGUCCGACGAUC … CAACAGAGGAUUGAGCAUCA
`UGUGAACUGAAAGGUGUGAUCUAAAAACAAGAUGACUUUUCCUGGCACAUAUUCCAAAGCAUAGACUUUGUUGCCUGCUGCUUAUUGUCUAAUUUACAGGGAUAUUUAAUUUUGUCAGGU` has a bound/input enrichment of 0.142 ratio.
With `AAAGAACCUCUCUCUGAUGAAGAUGAGGAAGACAAUGAUGAUGUUGAACCCAUUUCUGAAUUUCGAUUUGUGCCCAGUGAUAAGUCAGCGUUGGAGGCGAUGUUCACUGCAAUGUGCGAG` the bound/input enrichment was 0.237 ratio.
For `CAGCCUCAGAGCCCAGACUUCCUGGAUAUUACCAACCCCAAAGCCGUAUUAGAAAACGCAUUGAGAAACUUCGCCUGUCUGACGACUGGAGAUGUGAUUGCUAUCAACUACAAUGAGAAG`, the bound/input enrichment was 0.401 ratio.
`UGUAGUUUCUUGAUUUAUCAUUUUUCUCUUUUCUUUCAGAUCGUCAGGAAAAGCCUAAAGAUUAGGUUGUAAGAAAAACAGAAGCCAUGUUUCGAAGGAAGACCUGUCAGGUAUUUCGUC` gave a bound/input enrichment of 0.299 ratio.
`AGUACUGACUCAGGCGGAUUUUGCAACACCAAGCUCAAGUAGCAAUUAUCUUAGUCACAGUAGGGUAGUUUUGGGGCUCUGUGGCCAGGGUUUUAUUCACAUGCAGGUUUGGAAAAUGUA` gave a bound/input enrichment of 2.7 ratio.
`CAGGGCAUUAUUUCUCGUGCUGUUAGACACCUGUUCAAGAGUAUUGAUGAGAAAAAGACCUCAGCGAUUAAAAACGGGCUGCCCCCUCCAGAUUUUAAAGUGAAUGCCCAGUUCCUAGAG` gave a bound/input enrichment of 0.147 ratio.
For `GACUUGGGACCGUCCUGGGCUAGUACAAAUAGCGGCAGUGGAGGCUCGAGAGGAAAGUUUGUUAGUGGAGGCAGUGGUAGAGGCCGUAUGUACGCUCCCUUUACUCGAUAGAUGUGUUCU`, the bound/input enrichment was 0.439 ratio.

Single results of other studies
With `PhoQ, residues 284 288 289 292 302 303 AGCYAI` the fold induction was 5.84 (PhoP, residues 12 14 15 18 19 AQALL (Escherichia coli, UniProt P23836); Sort-seq, measured: YFP reporter; E. coli; PhoQ-PhoP variant library, together with: 10 µM Mg2+; reference: high Mg2+ state, higher = stronger signaling).
